Published values from different studies.
Every numbered part comes from another study and shows a few of its results, in no order. Several values in a cell are separate wells, animals, samples, runs or records.
Chain of UniProt O43318 (whole entry, looked up): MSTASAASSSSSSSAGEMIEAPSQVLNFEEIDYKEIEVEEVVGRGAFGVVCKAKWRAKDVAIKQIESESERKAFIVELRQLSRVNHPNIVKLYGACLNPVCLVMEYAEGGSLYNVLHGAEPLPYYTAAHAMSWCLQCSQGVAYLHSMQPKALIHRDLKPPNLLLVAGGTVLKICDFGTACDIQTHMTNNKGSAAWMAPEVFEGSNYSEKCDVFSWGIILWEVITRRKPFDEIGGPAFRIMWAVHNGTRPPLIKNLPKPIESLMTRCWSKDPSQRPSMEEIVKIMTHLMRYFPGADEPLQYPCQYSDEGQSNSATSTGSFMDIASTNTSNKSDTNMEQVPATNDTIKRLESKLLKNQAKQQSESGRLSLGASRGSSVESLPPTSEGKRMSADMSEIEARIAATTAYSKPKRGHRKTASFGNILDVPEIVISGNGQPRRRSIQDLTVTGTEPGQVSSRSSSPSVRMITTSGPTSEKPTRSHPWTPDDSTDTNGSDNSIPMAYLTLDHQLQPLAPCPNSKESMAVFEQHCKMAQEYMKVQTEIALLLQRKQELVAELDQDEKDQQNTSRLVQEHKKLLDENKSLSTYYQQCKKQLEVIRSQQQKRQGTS
Chain of UniProt Q9Y6E0 (whole entry, looked up): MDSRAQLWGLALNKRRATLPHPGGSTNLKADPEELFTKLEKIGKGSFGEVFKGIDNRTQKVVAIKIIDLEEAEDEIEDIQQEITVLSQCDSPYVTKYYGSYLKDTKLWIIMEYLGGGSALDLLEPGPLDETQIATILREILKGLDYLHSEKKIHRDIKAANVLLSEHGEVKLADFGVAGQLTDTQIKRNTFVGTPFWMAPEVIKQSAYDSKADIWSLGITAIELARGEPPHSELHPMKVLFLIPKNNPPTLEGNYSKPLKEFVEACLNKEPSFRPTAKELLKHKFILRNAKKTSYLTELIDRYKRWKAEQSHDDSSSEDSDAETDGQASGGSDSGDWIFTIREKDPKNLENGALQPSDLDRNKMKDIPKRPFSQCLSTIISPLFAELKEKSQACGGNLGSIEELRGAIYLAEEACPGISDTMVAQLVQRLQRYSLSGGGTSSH
Chain of UniProt O00141 (whole entry, looked up): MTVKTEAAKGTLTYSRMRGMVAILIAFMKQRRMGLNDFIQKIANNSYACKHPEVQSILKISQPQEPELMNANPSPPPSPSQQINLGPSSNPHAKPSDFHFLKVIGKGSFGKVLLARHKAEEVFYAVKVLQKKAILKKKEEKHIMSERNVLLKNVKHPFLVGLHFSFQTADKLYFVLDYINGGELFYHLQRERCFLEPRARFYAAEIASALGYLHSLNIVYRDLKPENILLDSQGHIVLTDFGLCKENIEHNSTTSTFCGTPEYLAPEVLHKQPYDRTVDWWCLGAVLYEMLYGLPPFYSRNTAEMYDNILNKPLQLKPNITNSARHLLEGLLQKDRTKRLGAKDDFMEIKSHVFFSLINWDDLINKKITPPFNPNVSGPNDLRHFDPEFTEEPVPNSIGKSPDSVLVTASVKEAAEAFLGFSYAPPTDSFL
Chain of UniProt P42338 (whole entry, looked up): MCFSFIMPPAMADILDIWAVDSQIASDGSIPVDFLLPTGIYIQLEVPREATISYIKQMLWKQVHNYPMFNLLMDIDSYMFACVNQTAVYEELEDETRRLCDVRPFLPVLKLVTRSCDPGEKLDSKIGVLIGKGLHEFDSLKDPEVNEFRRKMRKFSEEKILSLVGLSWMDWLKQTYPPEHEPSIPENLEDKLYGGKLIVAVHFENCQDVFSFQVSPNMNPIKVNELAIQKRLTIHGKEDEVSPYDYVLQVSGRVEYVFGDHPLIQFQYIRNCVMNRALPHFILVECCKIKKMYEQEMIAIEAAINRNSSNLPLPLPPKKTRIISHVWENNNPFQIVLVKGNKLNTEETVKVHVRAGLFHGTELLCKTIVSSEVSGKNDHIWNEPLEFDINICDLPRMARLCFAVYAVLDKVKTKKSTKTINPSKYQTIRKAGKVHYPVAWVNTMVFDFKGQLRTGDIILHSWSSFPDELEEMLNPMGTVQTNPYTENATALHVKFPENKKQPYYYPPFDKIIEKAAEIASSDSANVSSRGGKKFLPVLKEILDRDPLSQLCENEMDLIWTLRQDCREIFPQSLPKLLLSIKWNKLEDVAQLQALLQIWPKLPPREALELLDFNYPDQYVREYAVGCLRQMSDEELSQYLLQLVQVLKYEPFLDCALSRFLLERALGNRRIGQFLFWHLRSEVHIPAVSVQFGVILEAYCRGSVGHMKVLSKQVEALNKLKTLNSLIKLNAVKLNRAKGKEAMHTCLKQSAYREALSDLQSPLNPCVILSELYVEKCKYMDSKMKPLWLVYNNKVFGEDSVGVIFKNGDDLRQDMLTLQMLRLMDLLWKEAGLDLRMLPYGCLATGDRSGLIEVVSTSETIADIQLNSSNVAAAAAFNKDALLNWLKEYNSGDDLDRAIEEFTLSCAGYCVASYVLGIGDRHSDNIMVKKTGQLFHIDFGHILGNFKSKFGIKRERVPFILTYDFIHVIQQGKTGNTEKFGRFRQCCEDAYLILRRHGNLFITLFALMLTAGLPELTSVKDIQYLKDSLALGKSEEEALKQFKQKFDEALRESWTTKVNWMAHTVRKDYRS
Chain of UniProt P29317 (whole entry, looked up): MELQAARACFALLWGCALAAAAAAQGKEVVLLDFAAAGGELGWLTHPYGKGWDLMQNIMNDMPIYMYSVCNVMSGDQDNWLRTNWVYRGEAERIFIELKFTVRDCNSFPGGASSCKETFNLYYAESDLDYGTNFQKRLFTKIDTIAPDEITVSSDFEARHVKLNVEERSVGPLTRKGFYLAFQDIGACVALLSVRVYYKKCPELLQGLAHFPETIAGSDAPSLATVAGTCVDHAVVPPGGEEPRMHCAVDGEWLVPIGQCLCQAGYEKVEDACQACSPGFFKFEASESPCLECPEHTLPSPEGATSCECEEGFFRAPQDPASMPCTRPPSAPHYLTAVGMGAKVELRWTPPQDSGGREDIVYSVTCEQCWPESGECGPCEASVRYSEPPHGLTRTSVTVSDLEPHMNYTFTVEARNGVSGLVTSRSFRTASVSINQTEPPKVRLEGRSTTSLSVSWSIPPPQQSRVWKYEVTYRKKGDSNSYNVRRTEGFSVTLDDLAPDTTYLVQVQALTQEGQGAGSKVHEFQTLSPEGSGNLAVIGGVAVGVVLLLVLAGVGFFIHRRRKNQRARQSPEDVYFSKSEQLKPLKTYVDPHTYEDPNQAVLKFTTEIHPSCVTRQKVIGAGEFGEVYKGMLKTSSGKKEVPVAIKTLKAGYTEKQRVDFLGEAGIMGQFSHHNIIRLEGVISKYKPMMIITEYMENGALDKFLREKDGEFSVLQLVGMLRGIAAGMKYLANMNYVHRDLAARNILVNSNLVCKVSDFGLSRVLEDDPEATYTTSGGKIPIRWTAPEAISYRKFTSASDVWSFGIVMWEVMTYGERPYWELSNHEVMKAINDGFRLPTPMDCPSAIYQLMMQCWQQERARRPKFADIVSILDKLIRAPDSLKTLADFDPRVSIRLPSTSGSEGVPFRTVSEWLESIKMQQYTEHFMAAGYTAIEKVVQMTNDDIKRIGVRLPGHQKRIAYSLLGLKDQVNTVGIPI
Chain of UniProt O94768 (whole entry, looked up): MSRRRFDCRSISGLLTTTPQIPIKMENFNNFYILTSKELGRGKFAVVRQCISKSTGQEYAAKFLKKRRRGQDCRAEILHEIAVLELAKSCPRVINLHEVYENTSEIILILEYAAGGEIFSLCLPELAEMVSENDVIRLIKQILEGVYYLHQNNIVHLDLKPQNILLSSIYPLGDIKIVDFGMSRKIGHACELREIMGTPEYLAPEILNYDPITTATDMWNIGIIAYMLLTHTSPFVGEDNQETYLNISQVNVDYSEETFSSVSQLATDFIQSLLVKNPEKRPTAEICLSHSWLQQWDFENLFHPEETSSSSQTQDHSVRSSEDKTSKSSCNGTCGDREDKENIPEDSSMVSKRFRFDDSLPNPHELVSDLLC
Chain of UniProt Q9UIK4 (whole entry, looked up): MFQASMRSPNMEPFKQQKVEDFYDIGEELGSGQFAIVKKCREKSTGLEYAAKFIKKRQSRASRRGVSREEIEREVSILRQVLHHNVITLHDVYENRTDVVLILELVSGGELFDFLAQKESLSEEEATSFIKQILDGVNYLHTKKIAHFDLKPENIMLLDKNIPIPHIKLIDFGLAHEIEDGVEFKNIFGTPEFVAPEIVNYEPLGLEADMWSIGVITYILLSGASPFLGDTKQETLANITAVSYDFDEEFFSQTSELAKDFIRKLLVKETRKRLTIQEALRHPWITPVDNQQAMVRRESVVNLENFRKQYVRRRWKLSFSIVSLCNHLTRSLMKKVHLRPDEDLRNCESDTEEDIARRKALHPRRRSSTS
Chain of UniProt Q9H4B4 (whole entry, looked up): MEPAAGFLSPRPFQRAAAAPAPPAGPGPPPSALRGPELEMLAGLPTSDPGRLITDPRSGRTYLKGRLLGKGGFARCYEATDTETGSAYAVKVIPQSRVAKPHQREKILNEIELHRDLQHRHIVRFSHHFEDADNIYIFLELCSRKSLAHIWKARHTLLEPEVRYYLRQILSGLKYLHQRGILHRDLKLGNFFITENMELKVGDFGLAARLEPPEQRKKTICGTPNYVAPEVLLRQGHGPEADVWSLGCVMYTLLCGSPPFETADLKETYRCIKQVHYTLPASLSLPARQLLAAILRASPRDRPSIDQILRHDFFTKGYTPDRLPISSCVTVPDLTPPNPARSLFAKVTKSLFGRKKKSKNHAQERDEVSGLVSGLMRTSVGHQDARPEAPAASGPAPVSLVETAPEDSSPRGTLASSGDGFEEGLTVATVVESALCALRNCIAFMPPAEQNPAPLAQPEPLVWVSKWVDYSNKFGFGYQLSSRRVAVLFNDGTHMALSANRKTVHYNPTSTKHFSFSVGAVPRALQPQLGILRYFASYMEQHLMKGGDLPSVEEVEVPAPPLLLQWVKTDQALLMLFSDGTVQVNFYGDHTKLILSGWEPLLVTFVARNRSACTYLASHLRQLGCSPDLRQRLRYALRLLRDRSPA

Block 1 — read-out: cell-free assay; technique: competition with immobilised ligand; tested at: 1 µM; measurement: remaining binding
SMILES: CO[C@H]1CC[C@H](CNc2ccc(S(=O)(=O)NC(=O)c3ccc(N4CCN(CC5=C(c6ccc(Cl)cc6)CC(C)(C)CC5)CC4)cc3Oc3cnc4[nH]ccc4c3)cc2[N+](=O)[O-])CC1
STK35 (Homo sapiens, UniProt Q8TDR2): 93%
MAP3K7 (Homo sapiens, UniProt O43318): 100%
PTK2 (Homo sapiens, UniProt Q05397): 100%
BUB1 (Homo sapiens, UniProt O43683): 73%
SGK1 (Homo sapiens, UniProt O00141): 100%
RET (Homo sapiens, UniProt P07949, V804M): 93%
PIK3CB (Homo sapiens, UniProt P42338): 100%
Tyrosine-protein kinase ABL1, non-phosphorylated (ABL1, Homo sapiens, UniProt P00519, T315I): 100%
EPHA2 (Homo sapiens, UniProt P29317): 100%
PLK3 (Homo sapiens, UniProt Q9H4B4): 100%
STK24 (Homo sapiens, UniProt Q9Y6E0): 75%
PRKACA (Homo sapiens, UniProt P17612): 78%
STK17B (Homo sapiens, UniProt O94768): 91%
DAPK2 (Homo sapiens, UniProt Q9UIK4): 75%
IGF1R (Homo sapiens, UniProt P08069): 82%

Block 2 — cell line: mouse MPNST tumor cells; technique: high-content nuclear imaging; item: cell number; tested at: 10 µM; time: 12 h; setting: mean of 2 replicates; baseline: plate mean; reading: higher = more cells; measurement: nuclei count
Cc1cc(CS(=O)(=O)c2ccccc2)cc(OCc2ccc(CN3CCC[C@@H]3CO)cc2)c1: -2.07 z-score
CCn1cc(-c2cccc(C(F)(F)F)c2)c2sc(C(=N)NC3CCS(=O)(=O)CC3)cc2c1=O: 2.2 z-score and 0.66 z-score
Cc1c(Cl)cccc1Nc1ccccc1C(=O)O: 0.158 z-score
Cc1c(F)c(N2CCNC(C)C2)cc2c1c(=O)c(C(=O)O)cn2C1CC1 (centres unmarked): 1.43 z-score
N=C(N)NCCC[C@H](NC(=O)CC1(CC(=O)N2CCN(C3c4ccccc4NC(=O)c4ccccc43)CC2)CCCC1)C(=O)NCCn1c(=O)n(-c2ccccc2)n(-c2ccccc2)c1=O (some centres unmarked): 2.02 z-score
O=C(O)Cc1cccc(OCCCN(Cc2cccc(C(F)(F)F)c2Cl)CC(c2ccccc2)c2ccccc2)c1: 0.685 z-score
O=C(O)CCc1ccc(NCc2cccc(Oc3ccccc3)c2)cc1: 0.111 z-score

Block 3 — technique: phase 2a clinical trial
SMILES: CC(C)n1cnc(-c2ccc(F)cc2)c1-c1ncc(C(=O)Nc2ccc(N3CCN(C)CC3)cc2)[nH]1
Species: patients with idiopathic pulmonary fibrosis
Measurement: patients with treatment-emergent adverse events
item: left ventricular dysfunction; 60 mg once daily, Grade 1: 0%
item: metabolism and nutrition disorders (SOC); 60 mg once daily, Grade 5: 0%
item: drug-induced liver injury; 30 mg once daily, Grade 1: 0%
item: electrocardiogram QT prolonged; dose not given, Grade 5, all drug arms total: 0%
item: electrocardiogram QT prolonged; 60 mg once daily, Grade 5: 0%

Block 4 — species: human; medium: microsomes or S9; tested at: 2 µM; time: 0.5 h; measurement: remaining compound
Cc1cc(C)c(C)c(S(=O)(=O)N2CCN(CCc3cn(C)nn3)CC2)c1C: 3.94%
O=C(c1ccccc1)N1CC(c2nc(-c3cccnc3)no2)C2(CCOCC2)C1 (centres unmarked): 66.7%
c1ccc(Cn2c(-c3ccc(Oc4ccccc4)cc3)cn3ncnc23)cc1: 33.9%
CCC(CC)C1CC(NC(=O)Nc2c(C)ccn(C)c2=O)CCO1 (centres unmarked): 77%
CCC(c1nc2c3c(C)c(C)n(-c4cc(C)ccn4)c3ncn2n1)N1C(=O)c2ccccc2C1=O (centres unmarked): 60.9%

For quick reference, copied from above (block 1):
SGK1 (Homo sapiens, UniProt O00141): 100%
RET (Homo sapiens, UniProt P07949, V804M): 93%
